Assay results from different studies.
A part holds a random share of what one study measured. Values joined by “and” are separate records of one study, mostly repeats; a detail may differ.
Sequence of UniProt P00519 (whole entry, unmodified, looked up): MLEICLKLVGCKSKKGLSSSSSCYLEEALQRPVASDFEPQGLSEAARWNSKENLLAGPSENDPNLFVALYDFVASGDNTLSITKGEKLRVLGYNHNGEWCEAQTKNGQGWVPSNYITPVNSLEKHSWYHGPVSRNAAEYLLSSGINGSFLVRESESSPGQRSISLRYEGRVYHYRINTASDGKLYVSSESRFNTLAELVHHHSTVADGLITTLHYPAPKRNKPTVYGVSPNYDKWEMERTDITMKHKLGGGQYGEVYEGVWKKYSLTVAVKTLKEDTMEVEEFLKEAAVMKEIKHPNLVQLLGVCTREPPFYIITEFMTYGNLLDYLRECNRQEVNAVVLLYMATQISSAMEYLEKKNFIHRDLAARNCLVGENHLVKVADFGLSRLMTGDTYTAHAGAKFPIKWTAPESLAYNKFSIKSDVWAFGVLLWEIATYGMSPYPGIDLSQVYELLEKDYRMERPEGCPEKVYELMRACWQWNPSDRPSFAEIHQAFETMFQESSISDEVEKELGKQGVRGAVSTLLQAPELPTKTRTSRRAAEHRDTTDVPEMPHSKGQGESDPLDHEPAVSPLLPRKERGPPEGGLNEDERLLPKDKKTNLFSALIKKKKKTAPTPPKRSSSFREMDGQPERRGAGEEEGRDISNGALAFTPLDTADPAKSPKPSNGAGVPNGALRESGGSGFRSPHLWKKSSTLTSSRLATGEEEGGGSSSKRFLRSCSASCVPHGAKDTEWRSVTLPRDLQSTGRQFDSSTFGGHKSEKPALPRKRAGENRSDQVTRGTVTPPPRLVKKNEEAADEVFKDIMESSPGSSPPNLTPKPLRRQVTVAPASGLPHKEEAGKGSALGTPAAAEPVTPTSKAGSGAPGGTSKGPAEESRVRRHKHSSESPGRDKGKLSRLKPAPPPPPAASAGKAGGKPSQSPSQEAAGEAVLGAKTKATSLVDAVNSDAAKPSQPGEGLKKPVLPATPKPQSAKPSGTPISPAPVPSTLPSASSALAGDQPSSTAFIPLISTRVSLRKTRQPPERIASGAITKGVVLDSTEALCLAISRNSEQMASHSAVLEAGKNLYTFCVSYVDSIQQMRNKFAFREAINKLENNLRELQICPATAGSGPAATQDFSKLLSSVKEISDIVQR
Sequence of UniProt Q96GD4 (whole entry, looked up): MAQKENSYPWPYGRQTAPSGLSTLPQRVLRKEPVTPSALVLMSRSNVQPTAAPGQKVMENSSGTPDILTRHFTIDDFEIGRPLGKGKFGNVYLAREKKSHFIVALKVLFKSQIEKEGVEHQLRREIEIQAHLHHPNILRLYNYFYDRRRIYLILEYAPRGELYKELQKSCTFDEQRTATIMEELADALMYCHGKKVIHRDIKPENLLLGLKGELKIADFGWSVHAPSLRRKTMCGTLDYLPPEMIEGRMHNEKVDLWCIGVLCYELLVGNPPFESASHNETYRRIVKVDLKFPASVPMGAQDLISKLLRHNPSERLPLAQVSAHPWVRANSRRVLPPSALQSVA

Block 1 — effect on: enzyme activity; mode: inhibitor; concentration: 77 µM; baseline: untreated
Target: DNA polymerase theta, ATPase domain (POLQ, Homo sapiens, UniProt O75417)
Sequence of UniProt O75417 (whole entry, unmodified, looked up): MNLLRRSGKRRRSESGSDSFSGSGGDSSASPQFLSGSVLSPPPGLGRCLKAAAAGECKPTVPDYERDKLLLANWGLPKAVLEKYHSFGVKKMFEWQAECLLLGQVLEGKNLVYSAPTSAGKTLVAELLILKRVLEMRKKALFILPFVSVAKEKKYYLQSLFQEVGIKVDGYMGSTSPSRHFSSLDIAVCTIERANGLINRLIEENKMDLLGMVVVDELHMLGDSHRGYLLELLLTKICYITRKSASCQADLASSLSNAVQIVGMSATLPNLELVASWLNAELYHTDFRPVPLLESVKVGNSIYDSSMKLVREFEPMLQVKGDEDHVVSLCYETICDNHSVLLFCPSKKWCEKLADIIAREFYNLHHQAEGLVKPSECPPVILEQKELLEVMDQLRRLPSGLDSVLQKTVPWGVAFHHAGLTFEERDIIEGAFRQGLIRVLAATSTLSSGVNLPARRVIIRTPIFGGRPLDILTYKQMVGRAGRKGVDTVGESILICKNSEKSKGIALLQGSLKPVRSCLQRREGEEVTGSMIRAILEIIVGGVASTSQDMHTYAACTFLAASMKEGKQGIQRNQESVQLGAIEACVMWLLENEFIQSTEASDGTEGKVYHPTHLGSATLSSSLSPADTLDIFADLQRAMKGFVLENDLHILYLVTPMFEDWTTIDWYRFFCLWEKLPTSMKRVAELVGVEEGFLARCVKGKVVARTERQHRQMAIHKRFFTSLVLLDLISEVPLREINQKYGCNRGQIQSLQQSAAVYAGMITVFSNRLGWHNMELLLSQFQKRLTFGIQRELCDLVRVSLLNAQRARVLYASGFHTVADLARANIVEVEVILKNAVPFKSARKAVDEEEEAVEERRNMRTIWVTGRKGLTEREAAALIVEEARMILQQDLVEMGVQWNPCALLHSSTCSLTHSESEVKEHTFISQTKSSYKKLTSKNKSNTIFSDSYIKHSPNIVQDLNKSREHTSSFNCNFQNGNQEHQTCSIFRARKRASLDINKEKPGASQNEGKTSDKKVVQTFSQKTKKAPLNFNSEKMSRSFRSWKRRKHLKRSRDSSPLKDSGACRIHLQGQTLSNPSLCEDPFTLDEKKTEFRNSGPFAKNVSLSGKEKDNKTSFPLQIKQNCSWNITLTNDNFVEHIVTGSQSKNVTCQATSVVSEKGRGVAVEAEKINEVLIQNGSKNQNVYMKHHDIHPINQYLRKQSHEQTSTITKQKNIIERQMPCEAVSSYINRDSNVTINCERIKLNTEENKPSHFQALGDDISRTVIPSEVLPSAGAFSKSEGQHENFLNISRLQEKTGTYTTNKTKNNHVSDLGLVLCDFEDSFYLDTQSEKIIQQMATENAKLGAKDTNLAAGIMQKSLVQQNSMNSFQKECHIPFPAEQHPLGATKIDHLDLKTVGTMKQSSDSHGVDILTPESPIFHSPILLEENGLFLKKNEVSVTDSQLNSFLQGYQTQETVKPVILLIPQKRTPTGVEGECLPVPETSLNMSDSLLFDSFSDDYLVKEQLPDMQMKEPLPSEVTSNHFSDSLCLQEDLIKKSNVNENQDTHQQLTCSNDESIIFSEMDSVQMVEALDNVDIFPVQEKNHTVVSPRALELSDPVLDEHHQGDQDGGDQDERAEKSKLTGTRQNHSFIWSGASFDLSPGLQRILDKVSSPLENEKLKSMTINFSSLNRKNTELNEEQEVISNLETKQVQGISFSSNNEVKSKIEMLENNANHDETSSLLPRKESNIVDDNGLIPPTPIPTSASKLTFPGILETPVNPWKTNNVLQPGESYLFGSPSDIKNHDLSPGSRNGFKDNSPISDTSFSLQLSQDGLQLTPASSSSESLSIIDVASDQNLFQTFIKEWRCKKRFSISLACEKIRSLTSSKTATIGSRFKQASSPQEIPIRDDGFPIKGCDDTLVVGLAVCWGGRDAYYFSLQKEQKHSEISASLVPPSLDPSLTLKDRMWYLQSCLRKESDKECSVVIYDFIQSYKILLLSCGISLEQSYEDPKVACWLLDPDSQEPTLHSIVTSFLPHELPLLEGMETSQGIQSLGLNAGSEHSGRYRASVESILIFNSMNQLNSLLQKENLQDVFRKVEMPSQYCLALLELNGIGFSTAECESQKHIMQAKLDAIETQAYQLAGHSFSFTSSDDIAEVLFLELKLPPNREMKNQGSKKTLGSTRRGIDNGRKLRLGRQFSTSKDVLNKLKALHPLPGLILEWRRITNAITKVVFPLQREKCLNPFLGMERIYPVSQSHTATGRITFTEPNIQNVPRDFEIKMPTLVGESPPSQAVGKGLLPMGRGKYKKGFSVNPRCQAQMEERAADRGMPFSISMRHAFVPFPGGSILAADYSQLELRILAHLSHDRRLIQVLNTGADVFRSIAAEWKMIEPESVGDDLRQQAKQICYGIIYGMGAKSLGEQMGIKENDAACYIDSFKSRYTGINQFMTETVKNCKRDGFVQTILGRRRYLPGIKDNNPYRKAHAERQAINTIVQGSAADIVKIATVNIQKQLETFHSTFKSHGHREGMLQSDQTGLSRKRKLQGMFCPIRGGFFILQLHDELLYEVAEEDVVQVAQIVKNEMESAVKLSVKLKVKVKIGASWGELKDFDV
SMILES	remaining activity
N#Cc1cc2nc(O)c(O)nc2cc1[N+](=O)[O-]	97%
Nc1ncnc2c1ncn2C1CCCC1	101%
CCCOc1cc(N)ccc1C(=O)OCCN(CC)CC	105%
C#CC(N)CCC(=O)O (stereo not drawn)	102%
OC(CCN1CCCCC1)(c1ccccc1)c1ccccc1	97%
Cc1nc(-c2ccccc2)c(-c2ccncc2)o1	96.7%
Nc1cc(=O)[nH]c(N)n1	113%
COc1cc2c(cc1OC)-c1cc3ccc(OC)c(OC)c3c[n+]1CC2	102% and 87%
CCOC(=O)[C@H](CCc1ccccc1)N[C@@H](C)C(=O)N1Cc2ccccc2C[C@H]1C(=O)O	104%
O=c1c(-c2ccc(O)cc2)coc2c([C@@H]3O[C@H](CO)[C@@H](O)[C@H](O)[C@H]3O)c(O)ccc12	89.6%
O=C(Nc1cccc(Cl)c1)Nc1ncc(CCNc2ncnc3ccsc23)s1	83.8%
O=C(O)[C@@H]1[C@H]2C[C@H]3c4[nH]c5ccccc5c4CCN3C[C@@H]2CC[C@@H]1O	98.1%
COc1ccc(C2(O)OC(=O)C(c3ccc4c(c3)OCO4)=C2Cc2cc(OC)c(OC)c(OC)c2)cc1 (stereo not drawn)	90.6%
CC(C)(C#N)c1ccc(N2C(=O)OCc3cnc4ccc(-c5cnc6ccccc6c5)cc4c32)cc1	98.9%
O=C(O)C=Cc1ccc(O)c(O)c1	100%
COc1cc2cc3c4cc(OC)c(OC)cc4cc[n+]3c(C)c2cc1OC	75.7%
Cn1cc(-c2ccc3ncc(Cc4ccc5ncccc5c4)n3n2)cn1	95.2%
Nc1ccc(-c2ccc3ccccc3n2)cc1	101%
CC1(C)CC[C@]2(C(=O)O)CC[C@]3(C)C(=CC[C@@H]4[C@@]5(C)CC[C@H](O)C(C)(C)[C@@H]5CC[C@]43C)[C@@H]2C1	86.7%

Block 2 — effect on: enzyme activity; mode: inhibitor; concentration: 0.5 µM; baseline: control
Target: Serine/threonine-protein kinase 4 (STK4, Homo sapiens, UniProt Q13043)
Sequence of UniProt Q13043 (whole entry, looked up): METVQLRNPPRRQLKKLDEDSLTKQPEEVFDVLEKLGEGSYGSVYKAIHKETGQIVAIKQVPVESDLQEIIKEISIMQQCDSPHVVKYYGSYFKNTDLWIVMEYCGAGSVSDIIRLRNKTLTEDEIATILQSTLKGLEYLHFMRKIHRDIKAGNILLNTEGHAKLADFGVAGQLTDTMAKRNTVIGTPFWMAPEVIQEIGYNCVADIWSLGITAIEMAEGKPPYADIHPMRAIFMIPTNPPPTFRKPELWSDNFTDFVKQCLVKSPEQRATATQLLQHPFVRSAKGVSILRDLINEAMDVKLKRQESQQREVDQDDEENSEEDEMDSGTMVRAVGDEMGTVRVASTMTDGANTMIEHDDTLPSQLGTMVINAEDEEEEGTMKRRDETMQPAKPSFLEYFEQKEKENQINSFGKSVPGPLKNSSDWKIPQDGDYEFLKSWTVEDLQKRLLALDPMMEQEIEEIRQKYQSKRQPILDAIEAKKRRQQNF
Structure (SMILES)	remaining activity [%]
O=c1cc(-c2cccc3c2Sc2ccccc2S3)oc(N2CCOCC2)c1	95
COc1cc2ncnc(Nc3cccc(Cl)c3)c2cc1OC	92
Nc1cccc(-c2cc3c(Oc4cccc(O)c4)ncnc3[nH]2)c1	94.4
CCN(CC)CCNC(=O)c1c(C)[nH]c(/C=C2\C(=O)Nc3ccc(Cl)cc32)c1C	2.98
Ic1cccc(CSc2nnc(-c3ccncc3)o2)c1	102
O=C1c2ccccc2-c2n[nH]c3cccc1c23	62.3
CCOc1nc(NC(=O)Cc2cc(OC)ccc2OC)cc(N)c1C#N	95.4
Cc1nc2cc3nc(-c4cccs4)cnc3cc2n1C	97.4
COc1cc2ncnc(Nc3ccc(O)c(Br)c3)c2cc1OC	90
c1ccc(-c2[nH]ncc2-c2ccnc3ccccc23)nc1	101
O=C(Nc1cccc(Nc2nccc(Nc3cccc(C(F)(F)F)c3)n2)c1)C1CC1	83.1
CN(C)C[C@H]1CCn2c(c(C3=C(c4cn(C)c5ccccc45)C(=O)NC3=O)c3ccccc32)C1	80.1
c1ccc(-c2cnc(Nc3ccc(OCCN4CCCC4)cc3)s2)cc1	102
O=C1C(Cl)=C(N2C(=O)CCC2=O)C(=O)c2ccccc21	89.1
N#Cc1c(NC(=O)c2cccc3ccccc23)sc2c1CCCC2	93.1
N#C/C(=C\c1ccc(O)c(O)c1)C(=O)NCc1ccccc1	95.9
CCN(CC)C(=O)c1ccc(Nc2nc(OCC3CCCCC3)c3[nH]cnc3n2)cc1	46.3
Cc1cn(-c2cc(NC(=O)c3ccc(C)c(Nc4nccc(-c5cccnc5)n4)c3)cc(C(F)(F)F)c2)cn1	100
O=C(NC(NC(=S)Nc1ccc(F)c([N+](=O)[O-])c1)C(Cl)(Cl)Cl)C(c1ccccc1)c1ccccc1 (stereo not drawn)	96.2
CN([C@@H](Cc1ccc(OS(=O)(=O)c2cccc3cnccc23)cc1)C(=O)N1CCN(c2ccccc2)CC1)S(=O)(=O)c1cccc2cnccc12	96.8
COc1cc2c(cc1OC)-c1[nH]nc(Nc3cccc(F)c3)c1C2	91.5
Cn1nc2c3c(cccc31)C(=O)c1ccccc1-2	78.9
Cc1cc2ncc(-c3ccccc3)nc2cc1C	98.6

Block 3 — effect on: enzyme activity; mode: inhibitor; concentration: 10 µM
Target: Calcium/calmodulin-dependent protein kinase type II subunit alpha (CAMK2A, Homo sapiens, UniProt Q9UQM7)
Sequence of UniProt Q9UQM7 (whole entry, looked up): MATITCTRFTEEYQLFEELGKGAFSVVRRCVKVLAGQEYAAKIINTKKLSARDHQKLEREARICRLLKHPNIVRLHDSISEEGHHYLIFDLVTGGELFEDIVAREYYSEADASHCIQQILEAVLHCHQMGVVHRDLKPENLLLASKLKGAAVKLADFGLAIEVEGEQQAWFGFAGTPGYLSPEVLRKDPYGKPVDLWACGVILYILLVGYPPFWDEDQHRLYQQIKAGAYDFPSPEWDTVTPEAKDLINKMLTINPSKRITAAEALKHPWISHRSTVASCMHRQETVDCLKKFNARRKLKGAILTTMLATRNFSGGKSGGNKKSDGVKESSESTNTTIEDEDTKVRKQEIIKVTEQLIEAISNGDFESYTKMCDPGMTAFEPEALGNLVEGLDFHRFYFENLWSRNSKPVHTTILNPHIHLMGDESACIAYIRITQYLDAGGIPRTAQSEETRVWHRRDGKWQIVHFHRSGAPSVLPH
SMILES	inhibition
CSC(=O)OCC1=C[C@@H]2OC(=O)C3=CO[C@@H](O[C@@H]4O[C@H](CO)[C@@H](O)[C@H](O)[C@H]4O)[C@H]1[C@@H]32	-5%
O=c1cc(-c2ccc(O)cc2)oc2c([C@@H]3OC[C@@H](O)[C@H](O)[C@H]3O)c(O)c([C@@H]3O[C@H](CO)[C@@H](O)[C@H](O)[C@H]3O)c(O)c12	-30%
C=CCOC(Cn1ccnc1)c1ccc(Cl)cc1Cl (stereo not drawn)	-29%
NCC[C@H](N)C(=O)O	35%
O=C(O)C(O)c1cccc(O)c1 (stereo not drawn)	-26%
O=c1ccc2cc(O)c(O)cc2o1	-26%
C=CC1=C(C(=O)O)N2C(=O)[C@@H](NC(=O)/C(=N\O)c3csc(N)n3)[C@H]2SC1	-5%
CCCCCCC/C=C\C(=O)O	-7%
CC(C)(C)NC[C@H](O)c1ccc(O)c(CO)c1	1%
CCOC(=O)c1ccc(O)c(O)c1	4%
C[C@]12CC[C@@H]3c4ccc(OC(=O)c5ccccc5)cc4CC[C@H]3[C@@H]1CC[C@@H]2O	7%
CC(=O)O[C@H](CC(=O)[O-])C[N+](C)(C)C	-12%
CC(=O)Oc1ccccc1C(=O)O	-0.06% and -0.03%
CCCCCC(=O)O[C@]1(C(C)=O)CC[C@H]2[C@@H]3CCC4=CC(=O)CC[C@]4(C)[C@H]3CC[C@@]21C	0%
Fc1ccc(-c2ccc3c(c2)[nH]c2ccncc23)cn1	-3%
C=CC[S@+]([O-])C[C@H](N)C(=O)O	-15%
CC(=O)/N=c1/sc(S(N)(=O)=O)nn1C	-4%
CC[C@H](C)[C@H](N)C1=N[C@H](C(=O)N[C@@H](CC(C)C)C(=O)N[C@H](CCC(=O)O)C(=O)N[C@H](C(=O)N[C@H]2CCCCNC(=O)[C@H](CC(N)=O)NC(=O)[C@@H](CC(=O)O)NC(=O)[C@H](Cc3cnc[nH]3)NC(=O)[C@@H](Cc3ccccc3)NC(=O)[C@H]([C@@H](C)CC)NC(=O)[C@@H](CCCN)NC2=O)[C@@H](C)CC)CS1	3%
CC(C)(O[C@@H]1O[C@H](CO)[C@@H](O)[C@H](O)[C@H]1O)[C@@H]1CC[C@](O)(CO)[C@H]2CC(=O)[C@@](C)(O)[C@@H]2C1	0%

Block 4 — concentration: 1 µM
Compound: CCCCN(CCCC)C(=O)CN1C[C@@H](c2cc(OC)c3c(c2)OCO3)[C@H](C(=O)O)[C@H]1CC(C)(C)CCC
target	test	conditions	how to read	remaining binding [%]
Tyrosine-protein kinase ABL1, non-phosphorylated (ABL1, Homo sapiens, UniProt P00519)	cell-free assay, competition with immobilised ligand			94.8
Phosphatidylinositol 4-phosphate 5-kinase type-1 gamma (PIP5K1C, Homo sapiens, UniProt O60331)	cell-free assay, competition with immobilised ligand			100
Aurora kinase B (AURKB, Homo sapiens, UniProt Q96GD4)	cell-free assay, competition with immobilised ligand			100
Serine/threonine-protein kinase 38 (STK38, Homo sapiens, UniProt Q15208)	cell-free assay, competition with immobilised ligand			95.2
Epidermal growth factor receptor (EGFR, Homo sapiens, UniProt P00533, del747-750/T751S)	cell-free assay, competition with immobilised ligand			100
Bone morphogenetic protein receptor type-1A (BMPR1A, Homo sapiens, UniProt P36894)	cell-free assay, competition with immobilised ligand			100
Tyrosine-protein kinase ABL1 (ABL1, Homo sapiens, UniProt P00519, E255K)	KINOMEscan	E255K mutant, phosphorylated	baseline: control	93.5
Casein kinase I isoform alpha-like (CSNK1A1L, Homo sapiens, UniProt Q8N752)	cell-free assay, competition with immobilised ligand			91.1
Mitogen-activated protein kinase 12 (MAPK12, Homo sapiens, UniProt P53778)	cell-free assay, competition with immobilised ligand			100
Cyclin-dependent kinase 15 (CDK15, Homo sapiens, UniProt Q96Q40)	cell-free assay, competition with immobilised ligand			93.8
Ephrin type-B receptor 3 (EPHB3, Homo sapiens, UniProt P54753)	cell-free assay, competition with immobilised ligand			100
Protein kinase C theta type (PRKCQ, Homo sapiens, UniProt Q04759)	cell-free assay, competition with immobilised ligand			78.6
Mitogen-activated protein kinase kinase kinase 3 (MAP3K3, Homo sapiens, UniProt Q99759)	cell-free assay, competition with immobilised ligand			100
Receptor-interacting serine/threonine-protein kinase 4 (RIPK4, Homo sapiens, UniProt P57078)	cell-free assay, competition with immobilised ligand			77.2

Repeated from above (block 1):
SMILES	remaining activity
CCCOc1cc(N)ccc1C(=O)OCCN(CC)CC	105%
Nc1cc(=O)[nH]c(N)n1	113%
Cc1nc(-c2ccccc2)c(-c2ccncc2)o1	96.7%
COc1cc2cc3c4cc(OC)c(OC)cc4cc[n+]3c(C)c2cc1OC	75.7%
OC(CCN1CCCCC1)(c1ccccc1)c1ccccc1	97%
Nc1ccc(-c2ccc3ccccc3n2)cc1	101%
Nc1ncnc2c1ncn2C1CCCC1	101%
